Assay results of several laboratories.
Each line is one published result; not all experiments were run side by side. “And” joins repeats or separate records; there may be more than shown. ± marks the error that the study gave. Values after ≈ are worked out from the molar mass of the structure shown.
UniProt P49327, sequence (whole entry, looked up): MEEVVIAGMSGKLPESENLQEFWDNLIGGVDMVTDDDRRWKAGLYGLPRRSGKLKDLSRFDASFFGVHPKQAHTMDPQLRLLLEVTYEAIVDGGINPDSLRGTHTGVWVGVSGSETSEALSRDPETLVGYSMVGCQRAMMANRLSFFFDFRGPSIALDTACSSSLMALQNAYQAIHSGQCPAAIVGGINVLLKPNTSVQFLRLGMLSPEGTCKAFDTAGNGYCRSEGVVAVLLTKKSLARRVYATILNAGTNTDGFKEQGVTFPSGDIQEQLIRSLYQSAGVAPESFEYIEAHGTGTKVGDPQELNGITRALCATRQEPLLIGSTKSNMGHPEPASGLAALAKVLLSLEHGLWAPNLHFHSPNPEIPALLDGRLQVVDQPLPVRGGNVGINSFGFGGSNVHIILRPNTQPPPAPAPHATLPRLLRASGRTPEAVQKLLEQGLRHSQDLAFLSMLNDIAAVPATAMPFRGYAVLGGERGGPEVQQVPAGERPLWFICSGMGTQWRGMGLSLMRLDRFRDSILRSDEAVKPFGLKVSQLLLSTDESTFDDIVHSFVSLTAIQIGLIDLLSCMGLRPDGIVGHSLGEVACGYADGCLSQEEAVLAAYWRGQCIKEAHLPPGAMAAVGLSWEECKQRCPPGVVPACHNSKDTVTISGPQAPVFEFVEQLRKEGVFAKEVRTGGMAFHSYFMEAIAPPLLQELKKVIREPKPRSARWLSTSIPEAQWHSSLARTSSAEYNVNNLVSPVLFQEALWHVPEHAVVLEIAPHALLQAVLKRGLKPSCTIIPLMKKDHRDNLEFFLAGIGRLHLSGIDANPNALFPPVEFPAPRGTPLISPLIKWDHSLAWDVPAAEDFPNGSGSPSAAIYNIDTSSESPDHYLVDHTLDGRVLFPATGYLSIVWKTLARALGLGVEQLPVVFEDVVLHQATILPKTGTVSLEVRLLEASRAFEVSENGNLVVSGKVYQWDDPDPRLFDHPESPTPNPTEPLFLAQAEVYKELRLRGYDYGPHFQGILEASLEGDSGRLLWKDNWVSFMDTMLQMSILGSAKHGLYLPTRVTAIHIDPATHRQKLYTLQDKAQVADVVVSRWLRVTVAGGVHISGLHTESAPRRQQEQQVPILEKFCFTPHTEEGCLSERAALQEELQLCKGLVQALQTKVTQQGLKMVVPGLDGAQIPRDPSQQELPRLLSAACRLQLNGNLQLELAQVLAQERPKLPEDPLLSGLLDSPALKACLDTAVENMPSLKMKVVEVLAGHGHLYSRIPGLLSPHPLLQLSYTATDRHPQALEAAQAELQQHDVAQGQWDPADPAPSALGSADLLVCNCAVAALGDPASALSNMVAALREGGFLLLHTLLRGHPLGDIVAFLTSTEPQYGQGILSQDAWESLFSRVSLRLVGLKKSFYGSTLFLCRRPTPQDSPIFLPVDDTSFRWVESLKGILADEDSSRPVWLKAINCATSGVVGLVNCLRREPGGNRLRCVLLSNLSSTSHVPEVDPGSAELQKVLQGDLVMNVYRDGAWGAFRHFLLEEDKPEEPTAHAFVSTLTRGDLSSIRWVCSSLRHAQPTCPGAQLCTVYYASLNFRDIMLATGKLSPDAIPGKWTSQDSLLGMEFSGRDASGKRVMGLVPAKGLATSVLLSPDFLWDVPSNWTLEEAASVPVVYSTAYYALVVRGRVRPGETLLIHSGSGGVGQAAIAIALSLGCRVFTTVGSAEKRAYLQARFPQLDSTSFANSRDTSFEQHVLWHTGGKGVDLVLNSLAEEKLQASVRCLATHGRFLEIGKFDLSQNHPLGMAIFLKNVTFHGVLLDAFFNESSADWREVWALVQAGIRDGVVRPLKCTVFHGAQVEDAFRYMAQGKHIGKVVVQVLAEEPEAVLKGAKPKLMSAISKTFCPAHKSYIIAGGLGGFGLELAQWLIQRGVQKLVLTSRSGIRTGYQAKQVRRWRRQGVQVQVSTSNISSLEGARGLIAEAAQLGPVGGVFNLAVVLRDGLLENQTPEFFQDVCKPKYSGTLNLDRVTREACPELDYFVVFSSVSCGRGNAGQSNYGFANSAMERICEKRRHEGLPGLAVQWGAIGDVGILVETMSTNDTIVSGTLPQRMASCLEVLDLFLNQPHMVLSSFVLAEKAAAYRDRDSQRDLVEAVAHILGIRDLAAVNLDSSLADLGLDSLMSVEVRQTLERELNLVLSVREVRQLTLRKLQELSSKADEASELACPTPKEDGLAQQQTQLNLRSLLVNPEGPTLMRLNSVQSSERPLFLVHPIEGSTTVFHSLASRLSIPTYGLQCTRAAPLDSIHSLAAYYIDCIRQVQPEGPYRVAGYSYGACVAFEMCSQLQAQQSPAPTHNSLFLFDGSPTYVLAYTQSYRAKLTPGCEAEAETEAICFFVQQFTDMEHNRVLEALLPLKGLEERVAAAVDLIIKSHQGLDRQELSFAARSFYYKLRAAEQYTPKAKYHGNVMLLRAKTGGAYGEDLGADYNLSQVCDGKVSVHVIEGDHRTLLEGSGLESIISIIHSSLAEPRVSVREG

Under “gastrointestinal disorder TEAE”, `Cn1c(-c2ccc(C(N)=O)cc2F)nnc1C(C)(C)Oc1c(F)cc(Cl)cc1F` is recorded as 16.7% (human; oral, 1 mg, single ascending dose).
`CC(=O)c1c(C)c2cnc(Nc3ccc(C4CCN(CCS(C)(=O)=O)CC4)cn3)nc2n(C2CCCC2)c1=O`: “patients with TRAE grade ≥3” 66.7% (HR+/HER2- advanced breast cancer patients; oral, 150 mg).
With `COc1cccc([C@]2(C)CCN(C[C@@H](NC(=O)[C@H]3Cc4ccc(O)cc4CN3)C(C)C)C[C@@H]2C)c1` the Kp was 2.27 (rat; intraperitoneal, 5 mg/kg, brain over plasma AUClast).
With `CC[C@H](C)[C@H](NC(=O)[C@H](Cc1ccccc1)NC(=O)[C@H](CCC(=O)O)NC(=O)[C@H](CCCNC(=N)N)NC(=O)[C@H](C)NC(=O)[C@H](C)NC(=O)[C@H](CCC(N)=O)NC(=O)[C@H](CCC(=O)O)NC(=O)[C@H](CCC(=O)O)NC(=O)[C@H](CC(C)C)NC(=O)[C@H](Cc1ccc(O)cc1)NC(=O)[C@H](CO)NC(=O)[C@H](CO)NC(=O)[C@@H](NC(=O)[C@H](CC(=O)O)NC(=O)[C@H](CO)NC(=O)[C@@H](NC(=O)[C@H](Cc1ccccc1)NC(=O)[C@@H](NC(=O)CNC(=O)[C@H](CCC(=O)O)NC(=O)[C@H](C)NC(=O)CCc1cnc[nH]1)[C@@H](C)O)[C@@H](C)O)C(C)C)C(=O)N[C@@H](C)C(=O)N[C@@H](Cc1c[nH]c2ccccc12)C(=O)N[C@@H](CC(C)C)C(=O)N[C@H](C(=O)N[C@@H](CCCNC(=N)N)C(=O)NCC(=O)N[C@@H](CCCNC(=N)N)C(=O)N[C@@H](CCCCNC(=O)COCCOCCNC(=O)COCCOCCNC(=O)CC[C@H](NC(=O)CCCCCCCCCCCCCCCCC(=O)O)C(=O)O)C(=O)NCC(=O)NCC(=O)N[C@@H](CO)C(=O)N[C@@H](CCCCNC(=O)[C@H](CCCCNc1c(NCCCCCN(O)C(=O)CCC(=O)NCCCCCN(O)C(=O)CCC(=O)NCCCCCN(O)C(C)=O)c(=O)c1=O)Nc1c(NCCCCCN(O)C(=O)CCC(=O)NCCCCCN(O)C(=O)CCC(=O)NCCCCCN(O)C(C)=O)c(=O)c1=O)C(=O)O)C(C)C` [zirconium-89 labelled] the tissue uptake was 0.231 %ID/g (ex vivo gamma counting; male Sprague-Dawley rats, heart; intravenous, 1 nmol, 24 h).
The faecal recovery of `COc1ccc([C@@H]2CC(=O)c3c(O)cc(O)cc3O2)cc1O` is reported as 0.147 ± 0.04% (Sprague-Dawley rat, male, lean, faeces; oral, 100 mg/kg neohesperidin, 48 h; relative to: dose).
`CCc1ccc(CC/C=C/c2ccc3c(c2)C(=O)CC3)cc1` has a sodium of 140 mM (Sprague-Dawley rat, female, serum; oral, 120 mg/kg/day, 14 days).
`O=S(=O)(Nc1ccccc1)c1ccc(NC(=S)Nc2ccccc2)cc1` — result for “relative organ weight”: 0.21% (male mice, thymus; oral, 20 mg/kg daily 14 days; relative to: body weight).
Under “enzyme contribution to clearance”, `CC(C)=CC1C(C(=O)OC(C#N)c2cccc(Oc3ccccc3)c2)C1(C)C` (stereo not drawn) is recorded as 0.67% (measured: CYP3A4; human, age 1 year).
`O=C(Nc1ccccc1)C1CCN(C(=O)Oc2cccnc2)CC1`: “adverse event Somnolence” 15.4% (healthy women; oral, 100 mg, 9 days).
`NC(=O)[C@H]1CCN(c2ncnc(N)c2F)C[C@@H]1N1CCC[C@@H](Nc2cc(Cl)cc(C(F)(F)F)c2)C1=O`: “grade ≥3 thrombocytopenia” 0% (B-cell malignancy patients; oral, 164 mg twice daily, dose).
`CO[C@H]1C[C@@H]2CC[C@@H](C)[C@@](O)(O2)C(=O)C(=O)N2CCCC[C@H]2C(=O)O[C@H]([C@H](C)C[C@@H]2CC[C@@H](OC(=O)NCCOCCOCCOCCOCCOCCOCCOCCOCCC(=O)N3CCc4cc(Cn5nc(-c6ccc7oc(N)nc7c6)c6c(N)ncnc65)ccc4C3)[C@H](OC)C2)C[C@@H](O)[C@H](C)/C=C(\C)[C@@H](O)[C@@H](OC)C(=O)[C@H](C)C[C@H](C)/C=C/C=C/C=C/1C`: “incidence of Nausea TEAE” 52.6% (patients with advanced solid tumours; intravenous, dose not given, any grade).
For `O=c1ccc2ncc(=O)n3c2n1C[C@H]3CN1CCC(NCc2cc3c(cn2)OCCC3)CC1`, the AUC(0-t) was 19000 ng·h/mL (healthy human volunteers, plasma; oral, 1500 mg, single dose alone, geometric mean).
`C[C@@H]1OC(=O)NN=C1c1ccc(-c2ccc(F)cc2)c(C(F)(F)F)c1` — result for “patients with adverse event”: 0% (phase I trial, measured: Diarrhoea worst grade 1; human patients; 5 mg once daily).
`COc1ncccc1-c1cnn2ccc(N3CCN(C(=O)OC(C)C)CC3)nc12` has a drug concentration of 61 µM (mouse, formalin test, brain; oral, 30 mg/kg, 60 min).
For `O[C@H]1CCCN[C@@H]1CCCn1cnc2c(Cl)c(Cl)ccc21`, “effect of UGT2B7 phenotype on pharmacokinetics” read “no effect” (human).
The serum phosphorus of `COc1cccc(Oc2ccccc2NC(=O)CNC(=O)c2cccc3ccccc23)c1` is reported as 9.9 mg/dL and 9.8 mg/dL and 10 mg/dL (esterase-deficient SCID mice, male; oral, 40 mg/kg/day, 14 days, toxicity study).
With `C[C@H]1CN(c2n[nH]c3nc(N[C@H]4CC[C@H](NS(=O)(=O)CCC(F)(F)F)CC4)ncc23)CCO1` the relative abundance was 1.01 (Fatty acid synthase (FASN, Homo sapiens, UniProt P49327); inhibitor, Kinobeads competition profiling; 0.16 µM; relative to: vehicle).
`NC(=O)N1c2ccccc2C=Cc2ccccc21`: “participants with adverse events” 50% (human; oral, dose not given, 4 days, tapering dose).
`CC(C)C[C@H](NC(=O)[C@H](CCCCN)NC(=O)OCC1c2ccccc2-c2ccccc21)C(=O)N[C@H](C(=O)N[C@@H](Cc1ccccc1)C(=O)N[C@@H](Cc1ccccc1)C(=O)N[C@@H](CCCCN)C(=O)NCC(=O)N[C@@H](Cc1ccccc1)C(=O)N[C@@H](C)C(=O)N[C@@H](Cc1c[nH]c2ccccc12)C(=O)N[C@@H](CC(N)=O)C(=O)N[C@H](C(=O)N[C@H]1CSSC[C@@H](C(=O)N[C@@H](Cc2c[nH]cn2)C(=O)N[C@@H](CCCNC(=N)N)C(=O)N[C@@H](CCCNC(=N)N)C(=O)N[C@@H](C)C(=O)N[C@@H](CC(N)=O)C(N)=O)NC(=O)[C@H](C(C)C)NC(=O)[C@H](CCCNC(=N)N)NC(=O)[C@H](C(C)C)NC(=O)CNC(=O)[C@H](CC(N)=O)NC(=O)[C@H](CCCNC(=N)N)NC(=O)[C@H](Cc2ccc(O)cc2)NC(=O)[C@H](C(C)C)NC1=O)C(C)C)C(C)C` — result for “mean corpuscular volume”: 40.7 ± 0.74 fL (ICR mice, blood; intraperitoneal, 10 mg/kg, day 5).
For `C[C@]1(O)C[C@@](N)(c2ccc(-c3nc4n(c3-c3ccccc3)COc3ccncc3-4)cc2)C1`, “patients with Rash TEAE” read 66.7% (human, advanced or metastatic solid tumours; 16 mg once daily, phase I dose escalation).
For `Cc1cc(C)c(CNC(=O)c2cc(Cl)c3c(c2C)O[C@@](C)([C@H]2CC[C@H](N(C)C)CC2)O3)c(=O)[nH]1`, the Neutropenia incidence was 0% (human, relapsed/refractory NHL; concentration not given, treatment-related TEAEs, grade 5).
`COc1cc(Nc2ncc(F)c(Nc3ccc4c(n3)NC(=O)C(C)(C)O4)n2)cc(OC)c1OC` gave a solubility of 3.5 µM (≈ 1.65 µg/mL) (HEPES buffer; 24 h, pH 7.4, 0.1% DMSO).
For `CC[C@H](C)[C@H](NC(=O)[C@H](CC(C)C)NC(=O)[C@H](Cc1c[nH]c2ccccc12)NC(=O)[C@H](CCC(N)=O)NC(=O)[C@@H](NC(=O)[C@H](Cc1ccccc1)NC(=O)[C@H](C)NC(=O)[C@H](CCCCNC(=O)COCCOCCNC(=O)COCCOCCNC(=O)CC[C@H](NC(=O)CCCCCCCCCCCCCCCCCCC(=O)O)C(=O)O)NC(=O)[C@H](CCC(N)=O)NC(=O)[C@H](C)NC(=O)[C@@H](NC(=O)[C@H](CCCCN)NC(=O)[C@H](CC(=O)O)NC(=O)[C@H](CC(C)C)NC(=O)C(C)(C)NC(=O)[C@@H](NC(=O)[C@H](CO)NC(=O)[C@H](Cc1ccc(O)cc1)NC(=O)[C@H](CC(=O)O)NC(=O)[C@H](CO)NC(=O)[C@@H](NC(=O)[C@H](Cc1ccccc1)NC(=O)[C@@H](NC(=O)CNC(=O)[C@H](CCC(=O)O)NC(=O)C(C)(C)NC(=O)[C@@H](N)Cc1ccc(O)cc1)[C@@H](C)O)[C@@H](C)O)[C@@H](C)CC)[C@@H](C)CC)C(C)C)C(=O)N[C@@H](C)C(=O)NCC(=O)NCC(=O)N1CCC[C@H]1C(=O)N[C@@H](CO)C(=O)N[C@@H](CO)C(=O)NCC(=O)N[C@@H](C)C(=O)N1CCC[C@H]1C(=O)N1CCC[C@H]1C(=O)N1CCC[C@H]1C(=O)N[C@@H](CO)C(N)=O`, the peak-to-trough ratio was 1.94 (human, plasma; subcutaneous, 15 mg group, week 8, geometric mean; relative to: peak over trough concentration).
With `C[C@]1(CO)Cc2ncn(-c3ccc(C#N)c(Cl)c3)c2C(=O)O1` the Tmax was 1 h (healthy Japanese adults, plasma; 80 mg single dose).
`CC(C)n1c(C2CCNCC2)nc2c([N+](=O)[O-])c(Br)c(Br)cc21` — result for “related grade ≥3 adverse events”: 8% (measured: Thrombocytopenia; AML patients; dose not given, all doses).
For `CN1CC[C@@H](c2c(O)cc(O)c3c(=O)cc(-c4ccc(C(F)(F)F)cc4Cl)oc23)[C@@H]1CO`, “patients with adverse event” read 0% (measured: Hyperglycemia; relapsed B-cell malignancies or AML; oral, 50 mg, grade 3-4, continuous dosing).
For `COc1ccc(C[C@@H]2NC(=O)[C@H]([C@@H](C)O)NC(=O)[C@@H]3[C@@H]4CCN3C(=O)[C@@H]3Cc5cn(c6ccc(F)cc56)CCCCCCN(Cc5ccc(cc5)CCNC(=O)[C@]5(C)CCCN5C2=O)C(=O)CCC(=O)N[C@@H](C)C(=O)N[C@H](CNC(=O)CCCCC[N+](C)(C)C)C(=O)N[C@@H](Cc2cccc(c2)CNC(=O)CO4)C(=O)N3)cc1`, “participants with adverse event” read 2% (measured: Pyrexia; humans; concentration not given, Study-001).
`CCC[C@@](N)(CO)CCc1ccc(OCCCCCC(C)C)cc1` has a half-life of 31 h (dog; oral, 10 mg/kg).
For `O=C(O)CCCOc1ccc(F)cc1-c1cc(-c2ccccc2C(F)(F)F)n(-c2ccccc2)n1`, “relative organ weight” read 0.17 ± 0.02 g% (male Crl:CD(SD) rats, salivary glands; intravenous, 25 µg/kg, 14 d).
`CCCCCCCCCCCCCCCC(=O)N[C@@H](CCC(=O)NCCCC[C@H](NC(=O)[C@H](CC(=O)O)NC(=O)[C@H](CO)NC(=O)[C@@H](NC(=O)[C@H](Cc1ccccc1)NC(=O)[C@@H](NC(=O)CNC(=O)[C@H](CCC(N)=O)NC(=O)[C@H](CO)NC(=O)[C@@H](N)Cc1c[nH]cn1)[C@@H](C)O)[C@@H](C)O)C(=O)N[C@@H](CO)C(=O)N[C@@H](CCC(=O)O)C(=O)N[C@@H](Cc1ccc(O)cc1)C(=O)N[C@@H](CC(C)C)C(=O)N[C@@H](CC(=O)O)C(=O)N[C@@H](CO)C(=O)N[C@@H](CCC(=O)O)C(=O)N[C@@H](CCCNC(=N)N)C(=O)N[C@@H](C)C(=O)N[C@@H](CCCNC(=N)N)C(=O)N[C@@H](CC(=O)O)C(=O)N[C@@H](Cc1ccccc1)C(=O)N[C@H](C(=O)N[C@@H](C)C(=O)N[C@@H](Cc1c[nH]c2ccccc12)C(=O)N[C@@H](CC(C)C)C(=O)N[C@@H](CCC(=O)O)C(=O)N[C@@H](C)C(=O)NCC(=O)NCC(=O)O)C(C)C)C(=O)O`: “injection site erythema” 2.7% (human, all renal groups; sc, 100 µg single dose).
